Earlier results, collected from citations in different studies.
Lines come from different studies, so protocols differ. Several values in a cell are separate wells, animals, samples, runs or records.
UniProt P0AA25, sequence (whole entry, looked up): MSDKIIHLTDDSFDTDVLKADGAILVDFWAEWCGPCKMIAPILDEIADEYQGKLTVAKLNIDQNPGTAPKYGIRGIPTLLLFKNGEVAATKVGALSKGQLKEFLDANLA
UniProt P0AES9, sequence (whole entry, looked up): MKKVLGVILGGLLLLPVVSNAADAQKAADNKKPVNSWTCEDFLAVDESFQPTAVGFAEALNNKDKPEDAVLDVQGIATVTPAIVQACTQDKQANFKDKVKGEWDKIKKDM
UniProt P0ACD4, sequence (whole entry, looked up): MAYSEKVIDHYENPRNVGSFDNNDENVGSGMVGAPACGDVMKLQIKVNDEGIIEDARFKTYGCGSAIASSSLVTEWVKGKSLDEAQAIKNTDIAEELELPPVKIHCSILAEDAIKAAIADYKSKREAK
UniProt P00698, sequence (whole entry, looked up): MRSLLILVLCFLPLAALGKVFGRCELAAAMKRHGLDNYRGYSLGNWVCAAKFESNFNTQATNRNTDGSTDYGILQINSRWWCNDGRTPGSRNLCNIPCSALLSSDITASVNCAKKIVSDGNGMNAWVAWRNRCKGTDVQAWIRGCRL

With `GWKALEEKLKALEEKLKALEEEHKALEEKG (designed coiled-coil peptide L2W/K22E/L23H; N-acetyl, C-terminal amide, Cu(II) bound)` the pKa was 6.33 (UV-vis, refers to: Glu22; peptide).
`MKVIFLKDVKGKGKKGEIKNVA (rplI NTL9 residues 1-22 (Geobacillus stearothermophilus))` gave a pKa of 4.05 (NMR, refers to: Glu17; peptide).
`trxA (Escherichia coli, UniProt P0AA25)` has a pKa of > 11 and 9.4 and 7.05 (NMR, refers to: Cys35; reduced, no protein ligand, numbering of the source).
`hdeA mature, 89 residues (Escherichia coli, UniProt P0AES9)` has a pKa of > 5 (NMR, refers to: Glu37; 25 °C, numbering of the source).
`SDNKTYG (OMTKY3 peptide residues 26-32 (Meleagris gallopavo); N-acetyl, C-terminal methylamide)` has a pKa of 3.6 (NMR, refers to: Asp3; peptide; numbering of the source).
For `IscU apo (Escherichia coli, UniProt P0ACD4)`, the pKa was 6.9 (NMR, refers to: His10; NaCl 150 mM, D-state, apo).
`LYZ (Gallus gallus, UniProt P00698)` gave a pKa of 1.4 (NMR, refers to: Asp48; NaCl 100 mM, numbering of the source).
For `hdeA mature protein (Escherichia coli, UniProt P0AES9)`, the pKa was 4.14 (NMR, refers to: Asp47; 298 K, numbering of the source).
